Measurements from different studies.
Protocols differ between the studies behind these lines. “And” joins repeats or separate records; there may be more than shown. ± marks the error that the study gave.
NR4A1: Nuclear receptor subfamily 4 group A member 1 (NR4A1, Homo sapiens, UniProt P22736)
UniProt P22736, sequence (whole entry, looked up): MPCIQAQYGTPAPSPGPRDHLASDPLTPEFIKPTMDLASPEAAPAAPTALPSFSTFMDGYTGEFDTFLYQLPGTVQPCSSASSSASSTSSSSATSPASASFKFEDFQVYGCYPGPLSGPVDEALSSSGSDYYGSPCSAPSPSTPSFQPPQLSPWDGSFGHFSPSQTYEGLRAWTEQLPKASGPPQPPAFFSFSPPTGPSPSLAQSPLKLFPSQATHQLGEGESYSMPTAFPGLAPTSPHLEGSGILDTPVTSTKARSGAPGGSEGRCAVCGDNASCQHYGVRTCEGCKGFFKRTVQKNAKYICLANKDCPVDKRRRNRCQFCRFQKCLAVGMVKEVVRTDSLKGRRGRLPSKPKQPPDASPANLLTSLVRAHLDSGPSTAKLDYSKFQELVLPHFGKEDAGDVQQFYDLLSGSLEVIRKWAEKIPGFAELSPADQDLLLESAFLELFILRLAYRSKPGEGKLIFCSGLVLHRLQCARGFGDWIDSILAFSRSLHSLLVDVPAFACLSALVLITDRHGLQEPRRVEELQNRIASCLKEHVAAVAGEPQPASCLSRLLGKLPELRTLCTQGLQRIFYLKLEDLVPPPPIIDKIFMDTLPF
TRPV1: Transient receptor potential cation channel subfamily V member 1 (TRPV1, Homo sapiens, UniProt Q8NER1)
UniProt Q16774, sequence (whole entry, looked up): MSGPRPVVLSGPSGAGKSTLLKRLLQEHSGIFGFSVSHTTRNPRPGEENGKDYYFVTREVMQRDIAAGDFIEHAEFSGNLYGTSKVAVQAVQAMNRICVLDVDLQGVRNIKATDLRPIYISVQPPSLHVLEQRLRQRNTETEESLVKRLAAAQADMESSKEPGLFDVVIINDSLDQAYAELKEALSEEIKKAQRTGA
UniProt Q8NER1, sequence (whole entry, looked up): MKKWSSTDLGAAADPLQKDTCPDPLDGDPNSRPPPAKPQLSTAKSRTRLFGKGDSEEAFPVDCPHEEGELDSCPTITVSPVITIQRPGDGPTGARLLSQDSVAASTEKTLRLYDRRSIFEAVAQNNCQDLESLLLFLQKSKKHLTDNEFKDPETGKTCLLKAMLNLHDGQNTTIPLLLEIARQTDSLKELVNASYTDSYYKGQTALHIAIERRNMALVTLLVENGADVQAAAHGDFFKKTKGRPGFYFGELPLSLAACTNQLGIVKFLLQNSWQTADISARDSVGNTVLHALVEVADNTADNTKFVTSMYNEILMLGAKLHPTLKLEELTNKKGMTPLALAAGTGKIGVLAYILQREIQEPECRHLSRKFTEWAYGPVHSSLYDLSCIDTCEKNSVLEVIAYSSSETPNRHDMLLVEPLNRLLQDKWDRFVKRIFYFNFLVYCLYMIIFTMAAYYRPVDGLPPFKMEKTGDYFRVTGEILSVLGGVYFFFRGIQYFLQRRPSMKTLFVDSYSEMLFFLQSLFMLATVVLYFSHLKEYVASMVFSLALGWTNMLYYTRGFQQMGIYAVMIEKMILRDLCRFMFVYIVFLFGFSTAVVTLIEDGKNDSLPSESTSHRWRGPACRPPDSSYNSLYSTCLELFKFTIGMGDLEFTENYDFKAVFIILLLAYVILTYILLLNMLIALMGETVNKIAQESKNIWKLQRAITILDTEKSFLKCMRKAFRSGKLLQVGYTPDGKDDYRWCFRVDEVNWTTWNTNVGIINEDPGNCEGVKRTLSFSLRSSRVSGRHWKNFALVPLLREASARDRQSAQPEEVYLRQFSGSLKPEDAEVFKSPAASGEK
UniProt O75762, sequence (whole entry, looked up): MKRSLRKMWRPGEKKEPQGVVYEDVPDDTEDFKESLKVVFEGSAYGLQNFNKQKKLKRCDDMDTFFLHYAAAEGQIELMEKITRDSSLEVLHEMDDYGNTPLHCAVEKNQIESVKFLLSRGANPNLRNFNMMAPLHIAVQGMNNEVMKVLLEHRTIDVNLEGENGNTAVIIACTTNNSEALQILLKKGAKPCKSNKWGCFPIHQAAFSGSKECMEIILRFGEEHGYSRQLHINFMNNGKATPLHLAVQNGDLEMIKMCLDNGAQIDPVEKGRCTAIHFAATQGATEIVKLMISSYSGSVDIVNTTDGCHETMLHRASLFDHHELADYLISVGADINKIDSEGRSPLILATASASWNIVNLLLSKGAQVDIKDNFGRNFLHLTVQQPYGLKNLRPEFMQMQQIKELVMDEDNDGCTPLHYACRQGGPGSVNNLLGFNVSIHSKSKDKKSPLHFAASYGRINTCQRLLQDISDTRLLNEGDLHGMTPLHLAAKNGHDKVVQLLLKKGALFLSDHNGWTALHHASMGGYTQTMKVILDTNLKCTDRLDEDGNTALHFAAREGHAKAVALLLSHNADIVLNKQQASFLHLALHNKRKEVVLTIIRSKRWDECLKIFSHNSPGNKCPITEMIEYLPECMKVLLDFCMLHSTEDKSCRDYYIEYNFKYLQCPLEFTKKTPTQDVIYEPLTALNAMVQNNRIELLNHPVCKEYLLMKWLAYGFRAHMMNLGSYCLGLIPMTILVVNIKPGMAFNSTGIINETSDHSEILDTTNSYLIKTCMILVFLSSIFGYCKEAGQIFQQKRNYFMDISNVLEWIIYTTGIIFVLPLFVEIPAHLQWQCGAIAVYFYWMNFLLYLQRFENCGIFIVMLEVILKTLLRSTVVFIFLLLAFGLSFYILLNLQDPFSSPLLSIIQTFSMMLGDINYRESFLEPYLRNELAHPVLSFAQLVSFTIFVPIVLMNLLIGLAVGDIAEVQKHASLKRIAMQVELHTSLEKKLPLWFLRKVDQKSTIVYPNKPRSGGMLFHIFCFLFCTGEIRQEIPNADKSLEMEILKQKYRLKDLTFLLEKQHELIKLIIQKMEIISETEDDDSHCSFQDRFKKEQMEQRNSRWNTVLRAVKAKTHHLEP
UniProt O76090, sequence (whole entry, unmodified, looked up): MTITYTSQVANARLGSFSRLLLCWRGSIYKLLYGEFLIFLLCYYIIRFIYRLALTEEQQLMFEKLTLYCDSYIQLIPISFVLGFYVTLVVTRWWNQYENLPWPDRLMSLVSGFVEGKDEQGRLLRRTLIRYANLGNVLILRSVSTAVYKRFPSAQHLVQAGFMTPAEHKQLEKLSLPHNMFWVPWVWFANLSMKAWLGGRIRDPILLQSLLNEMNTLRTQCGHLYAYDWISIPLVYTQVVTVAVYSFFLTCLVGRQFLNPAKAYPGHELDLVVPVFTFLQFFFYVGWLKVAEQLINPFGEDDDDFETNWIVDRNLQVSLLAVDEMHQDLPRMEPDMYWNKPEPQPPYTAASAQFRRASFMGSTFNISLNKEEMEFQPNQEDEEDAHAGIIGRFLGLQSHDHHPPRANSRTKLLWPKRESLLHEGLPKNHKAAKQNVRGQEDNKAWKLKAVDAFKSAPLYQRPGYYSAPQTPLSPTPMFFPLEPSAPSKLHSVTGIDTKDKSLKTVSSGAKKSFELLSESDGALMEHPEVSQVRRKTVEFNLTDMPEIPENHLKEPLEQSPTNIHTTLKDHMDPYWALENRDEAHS
UniProt Q96SW2, sequence (whole entry, looked up): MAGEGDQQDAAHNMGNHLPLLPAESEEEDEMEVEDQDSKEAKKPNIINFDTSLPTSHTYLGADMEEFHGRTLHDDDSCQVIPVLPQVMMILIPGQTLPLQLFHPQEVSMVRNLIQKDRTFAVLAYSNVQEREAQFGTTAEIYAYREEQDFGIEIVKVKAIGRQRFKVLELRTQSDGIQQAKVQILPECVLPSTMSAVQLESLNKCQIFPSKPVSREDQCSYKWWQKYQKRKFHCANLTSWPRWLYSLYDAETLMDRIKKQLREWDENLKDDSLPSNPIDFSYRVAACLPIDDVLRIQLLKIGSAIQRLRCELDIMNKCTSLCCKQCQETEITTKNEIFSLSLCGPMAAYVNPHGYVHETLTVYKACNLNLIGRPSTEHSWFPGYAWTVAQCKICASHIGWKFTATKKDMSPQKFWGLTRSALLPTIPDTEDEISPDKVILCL
UniProt Q9Y243, sequence (whole entry, looked up): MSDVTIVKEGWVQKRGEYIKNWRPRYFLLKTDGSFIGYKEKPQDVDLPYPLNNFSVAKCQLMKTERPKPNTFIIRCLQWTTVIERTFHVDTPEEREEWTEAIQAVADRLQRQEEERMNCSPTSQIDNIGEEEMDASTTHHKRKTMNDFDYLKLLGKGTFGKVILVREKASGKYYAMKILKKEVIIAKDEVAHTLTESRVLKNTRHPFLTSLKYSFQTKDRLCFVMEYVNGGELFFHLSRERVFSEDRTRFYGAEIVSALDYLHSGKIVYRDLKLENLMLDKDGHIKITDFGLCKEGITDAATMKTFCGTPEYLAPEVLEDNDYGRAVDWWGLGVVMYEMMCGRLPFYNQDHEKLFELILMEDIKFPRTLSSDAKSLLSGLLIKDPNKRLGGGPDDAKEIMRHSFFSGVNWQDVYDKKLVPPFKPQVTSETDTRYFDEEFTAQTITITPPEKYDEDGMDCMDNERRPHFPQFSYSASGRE
UniProt P15170, sequence (whole entry, looked up): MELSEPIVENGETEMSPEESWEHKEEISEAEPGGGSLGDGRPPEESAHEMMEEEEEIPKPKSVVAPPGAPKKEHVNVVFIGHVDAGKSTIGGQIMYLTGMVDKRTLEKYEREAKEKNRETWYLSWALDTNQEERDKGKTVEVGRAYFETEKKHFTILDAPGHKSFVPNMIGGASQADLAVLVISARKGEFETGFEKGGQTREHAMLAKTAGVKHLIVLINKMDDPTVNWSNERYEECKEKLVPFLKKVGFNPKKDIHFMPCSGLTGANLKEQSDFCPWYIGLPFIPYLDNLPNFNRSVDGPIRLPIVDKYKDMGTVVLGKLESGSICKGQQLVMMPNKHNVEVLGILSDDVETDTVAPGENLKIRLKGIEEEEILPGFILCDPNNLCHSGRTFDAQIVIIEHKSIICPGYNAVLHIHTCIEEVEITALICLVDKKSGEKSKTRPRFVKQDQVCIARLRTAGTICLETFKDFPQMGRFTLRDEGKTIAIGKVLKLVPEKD
UniProt P00441, sequence (whole entry, unmodified, looked up): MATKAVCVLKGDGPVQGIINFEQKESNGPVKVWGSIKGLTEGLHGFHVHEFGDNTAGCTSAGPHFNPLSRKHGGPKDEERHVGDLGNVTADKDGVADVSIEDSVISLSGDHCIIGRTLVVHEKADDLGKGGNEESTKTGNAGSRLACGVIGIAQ

N[C@@H](CC(=O)O)C(=O)O  ΔH (Methyl-accepting chemotaxis protein, ligand-binding domain (Pectobacterium atrosepticum, UniProt Q6D6I9); isothermal titration calorimetry; SCRI1043; pH 6.0, 25 °C, with: 30 µM PacC ligand-binding domain): -1.7 ± 0.6 kcal/mol
CCCC[C@@H]1NC(=O)[C@H](Cc2ccc(O)cc2)NC(=O)[C@@H]2CCCN2C(=O)[C@H](CC(=O)O)NC(=O)[C@H](C)NC(=O)[C@H](Cc2ccccc2)NC(=O)[C@@H]2CSCCC(=O)N3CN(CN(C3)C(=O)CCSC[C@H](NC(C)=O)C(=O)N[C@@H](CC(C)(C)C)C(=O)N3CCC[C@H]3C(=O)N[C@@H](CCC(=O)O)C(=O)N[C@H](CCCCNC(=O)CCc3cn(CCOCCOCCOCCN(CCOCCOCCOCCC(=O)N[C@H]4CSCCC(=O)N5CN6CN(C5)C(=O)CCSC[C@H](NC(=O)[C@@H](CC(=O)O)NC(=O)[C@H](Cc5cccc7ccccc57)NC(=O)[C@@H]5CCCN5C4=O)C(=O)N[C@@H](CCSC)C(=O)N[C@@H](CCCCNC(=N)N)C(=O)N[C@@H](CC(=O)O)C(=O)N[C@@H](Cc4c[nH]c5ccccc45)C(=O)N[C@@H](CO)C(=O)N[C@@H]([C@@H](C)O)C(=O)N4CCC[C@H]4C(=O)N4C[C@H](O)C[C@H]4C(=O)N[C@@H](Cc4c[nH]c5ccccc45)C(=O)N[C@H](C(N)=O)CSCCC6=O)CCOCCOCCOCCn4cc(CCC(=O)NCCCC[C@H]5NC(=O)[C@H](CCC(=O)O)NC(=O)[C@@H]6CCCN6C(=O)[C@H](CC(C)(C)C)NC(=O)[C@@H](NC(C)=O)CSCCC(=O)N6CN7CN(C6)C(=O)CCSC[C@H](NC(=O)[C@H](Cc6ccc(O)cc6)NC(=O)[C@@H]6CCCN6C5=O)C(=O)N[C@@H](Cc5ccccc5)C(=O)N[C@@H](C)C(=O)N[C@@H](CC(=O)O)C(=O)N5CCC[C@H]5C(=O)N[C@@H](Cc5ccc(O)cc5)C(=O)N[C@@H](CCCC)C(=O)NCCSCCC7=O)nn4)nn3)C(=O)N3CCC[C@H]3C(=O)N[C@@H](Cc3ccc(O)cc3)C(=O)N2)C(=O)CCSCCNC1=O  Emax (Tumor necrosis factor receptor superfamily member 9/Nectin-4 (Homo sapiens, UniProt Q07011+Q96NY8); reporter gene, agonist; HT-1376 coculture with reporter cells; reference: background): 75 fold
Cc1n[nH]c2ccc(-c3cc(OC[C@@H](N)Cc4ccccc4)cnc3-c3ccoc3)cc12  log2 fold change (Mitogen-activated protein kinase HOG1 (HOG1, Candida albicans, UniProt Q92207); MIB/MS competition binding; Candida albicans cell lysate; 100 nM; reference: DMSO, lower = stronger binding): 0.146
C[C@H]1O[C@@H](O[C@H]2CC[C@@]3(C)[C@@H](CC[C@]4(C)[C@@H]3C=CC3=C5CC(C)(C)CC[C@]5(CO)[C@@H](O)C[C@]34C)[C@]2(C)CO)[C@H](O)[C@@H](O[C@@H]2O[C@H](CO)[C@@H](O)[C@H](O)[C@H]2O)[C@H]1O  MST normalised fluorescence (NAD-dependent protein deacetylase sirtuin-1 (SIRT1, Homo sapiens, UniProt Q96EB6); binding, microscale thermophoresis; 131 nM): 884 a.u.
COc1cc(/C=C/c2ccc(O)cc2)cc(OC)c1  cooperativity factor (O-methyltransferase (Sorghum bicolor, UniProt A0A1B6PFV1); with: saturating SAM): 0.45
Cc1ccc(Cc2nnc(NS(=O)(=O)c3ccc(N)cc3)s2)cc1  Kii (Glutathione hydrolase 1 proenzyme, without transmembrane domain (Homo sapiens, UniProt P19440); GSH hydrolysis, uncompetitive inhibitor; 37 °C, binds gamma-glutamyl enzyme, with: GSH 5-20 µM): 82 ± 13 µM
Nc1ncnc2c1ncn2[C@@H]1O[C@H](COP(=O)(O)CP(=O)(O)OP(=O)(O)O)[C@@H](O)[C@H]1O  calcium influx (P2X purinoceptor 1 (P2RX1, Homo sapiens, UniProt P51575, R139P); calcium influx; 10 µM; reference: ionomycin response): 100%
COCCC(=O)N1CCC(Oc2ccccc2)C1 (stereo not shown)  fold enrichment (ATP-dependent RNA helicase DDX1 (Homo sapiens, UniProt Q92499); binding, affinity selection mass spectrometry; reference: other proteins in batch): 1.28
CC1=C(/C=C/C(C)=C/C=C/C(C)=C/C=O)C(C)(C)CCC1  relative kon (Rhodopsin (RHO, Bos taurus, UniProt P02699, I189V); retinal entry, Trp FRET; lipid bicelles; 28 °C, I189V mutant; reference: wild-type rhodopsin): 1.09 ± 0.04
O=C(O)c1ccc(Nc2ncc3c(n2)-c2ccc(Cl)cc2C(c2c(F)cccc2F)=NC3)cc1  remaining activity (human CK2(h); kinase activity; 1 µM): 108%
[Cl-].[Na+]  initial reaction velocity (GUK1 (Homo sapiens, UniProt Q16774); enzyme activity, NADH-coupled; 150 mM, enzyme 7.5 nM): 0.265 µM/s and 0.237 µM/s and 0.266 µM/s
O=C1CCC(N2Cc3cc(CNC(=O)C(F)(F)c4ccc(Cl)cc4)ccc3C2=O)C(=O)N1 (stereo not shown)  ternary complex formation (GSPT1/CRBN, 300-496; with DDB1 (Homo sapiens, UniProt P15170+Q96SW2); degrader, AlphaLISA; 10 µM; reference: reference compound): 100%
CCN1CCN(c2cc(N3CCN(CC)CC3)nc(NCCNc3ccnc4cc(Cl)ccc34)n2)CC1  activation (NR4A1; reporter gene, NBRE reporter full-length; 10 µM; reference: vehicle): 1.09 ± 0.18 fold
[Ca]  potentiation (Transient receptor potential cation channel subfamily A member 1 (TRPA1, Homo sapiens, UniProt O75762); ion current, two-electrode voltage clamp; Xenopus oocytes; 500 µM, +80 mV, with: extracellular Ca2+; reference: current before Ca2+ addition): 1.22 fold change and 1.34 fold change and 1.18 fold change and 1.25 fold change and 1.48 fold change and 1.56 fold change and 1.42 fold change
Nc1ccc(C(=O)O)cc1  current density (BEST1, with wild-type BEST1 (Homo sapiens, UniProt O76090, A10T); whole-cell patch clamp; HEK293 co-expressing WT and A10T mutant; concentration not given, membrane potential 100 mV): 36.8 pA/pF and 18.1 pA/pF and 38.5 pA/pF and 63.5 pA/pF and 19.6 pA/pF and 49.9 pA/pF
c1ccc(OC[C@@H]2CN(CCN3CCc4ccccc43)CCO2)cc1  inhibition (5-hydroxytryptamine receptor 5A (HTR5A, Homo sapiens, UniProt P47898); radioligand binding; concentration not given, with: [3H]LSD): 11.2%
O=C1CCC(N2Cc3cc(NC(=O)C4CCCCC4)ccc3C2=O)C(=O)N1 (stereo not shown)  degradation rate constant (Cereblon/Casein kinase I alpha (CSNK1A1/CRBN, Homo sapiens, UniProt P48729+Q96SW2); degrader, live-cell HiBiT kinetics; HEK293 LgBiT; 10 µM): 0.86 h⁻¹
[O-][S+]1CCCCS1 (stereo not shown)  SOD1 dimer fraction (Superoxide dismutase [Cu-Zn] (SOD1, Homo sapiens, UniProt P00441, G94A); LC-MS; brain homogenate; 500 µM, 1 h, 37 °C): 83.5%
C=C1C(=O)O[C@@H]2C[C@@]3(C)CCCC(=C)[C@@H]3C[C@H]12  activation (NR4A1; reporter gene, Gal4 hybrid reporter; 10 µM; reference: vehicle): 0.73 fold
CC(=O)Nc1ccc(O)cc1  chemical shift change (Bromodomain-containing protein 4 (BRD4, Homo sapiens, UniProt O60885); 19F NMR, refers to: tyrosine 119; 48 µM; reference: free protein): 0.035 ppm
C=CC(=O)N1CCC(COCC(=O)N2CCN(c3nc(-c4cnc(N)nc4C(F)F)nc(N4CCOC[C@@H]4C)n3)CC2)CC1  remaining binding (RAC-gamma serine/threonine-protein kinase (AKT3, Homo sapiens, UniProt Q9Y243); KINOMEscan; 1 µM): 100%
COc1cc(CNC(=O)CCCC/C=C/C(C)C)ccc1O  calcium response (TRPV1; channel activation, FLIPR calcium; HEK293T; 0.00914 µM; higher = more activation): 0.918 a.u. and 6.54 a.u. and 6.67 a.u. and 2.78 a.u.
COc1cc(CNC(=O)CCCC/C=C/C(C)C)ccc1O  closed time constant (TRPV1; channel gating, single-channel inside-out patch; 100 nM, component 2 of four): 1.42 ms
CC(=O)N[C@@H]1[C@@H](O[C@H]2O[C@H](CO)[C@H](O)[C@H](O)[C@H]2O)[C@@H](O)[C@@H](CO)O[C@H]1O  dissociation rate constant (Frizzled-8 (Xenopus laevis, UniProt Q91719); binding, biolayer interferometry; 25 °C, with: immobilized biotinylated carbohydrate): 0.00153 s⁻¹
c1coc(-c2n[nH]cc2-c2ccnc3ccccc23)c1  log2 fold change (Mitosis inhibitor protein kinase SWE1 (SWE1, Candida albicans, UniProt Q5AP97); kinase binding, MIB/MS competition; Candida albicans lysate; 1 µM; reference: DMSO, negative = stronger binding): -0.12
Cc1cccc(NC(=O)Cn2cc(CO)c3ccccc32)c1  delta Tm (Sodium channel protein type 8 subunit alpha, C-terminal domain (SCN8A, Homo sapiens, UniProt Q9UQD0); binding, protein thermal shift; 25 µM): 2.6 °C
[H]/N=C(/N)NCC(=O)O  normalised MST signal (Sodium- and chloride-dependent taurine transporter (SLC6A6, Homo sapiens, UniProt P31641, Y138A); binding, microscale thermophoresis; 125 µM, room temperature, with: 50 nM labelled protein; higher = more binding): -0.00664
CC(=O)N[C@H](C(=O)N[C@@H](CC(N)=O)C(=O)N[C@@H](CCCCN)C(=O)N[C@@H](C)C(=O)N[C@@H](CC(C)C)C(=O)N1CCC[C@H]1C(=O)N[C@@H](C)C(=O)N[C@@H](CC(C)C)C(=O)N1CCC[C@H]1C(=O)N[C@H](C(=O)N[C@@H](C)C(N)=O)C(C)C)C(C)C  -TΔS (High osmolarity signaling protein SHO1, SH3 domain (SHO1, Saccharomyces cerevisiae, UniProt P40073); binding, isothermal titration calorimetry; 50 mM sodium phosphate, 100 mM NaCl; pH 7.0, 25 °C): 2.53 ± 0.0717 kcal/mol

Some of these lines once more:
N[C@@H](CC(=O)O)C(=O)O  ΔH (Methyl-accepting chemotaxis protein, ligand-binding domain (Pectobacterium atrosepticum, UniProt Q6D6I9); isothermal titration calorimetry; SCRI1043; pH 6.0, 25 °C, with: 30 µM PacC ligand-binding domain): -1.7 ± 0.6 kcal/mol
Cc1cccc(NC(=O)Cn2cc(CO)c3ccccc32)c1  delta Tm (Sodium channel protein type 8 subunit alpha, C-terminal domain (SCN8A, Homo sapiens, UniProt Q9UQD0); binding, protein thermal shift; 25 µM): 2.6 °C
